Experimental data pooled from the literature.
A part holds a random share of what one study measured. Positions count from the first letter of the parent shown.

Set 1
Target: ABI1, truncated, D143A, DHFR fusion (Arabidopsis thaliana)
Method: DHFR PCA, deep sequencing
Sample: yeast
Notes: methotrexate growth selection, single substitutions
Added: (+)-ABA 17 µM
Relative to: wild-type fitted maximum
Reading: higher = stronger binding
Starting sequence: PYL1, truncated, DHFR fusion (Arabidopsis thaliana); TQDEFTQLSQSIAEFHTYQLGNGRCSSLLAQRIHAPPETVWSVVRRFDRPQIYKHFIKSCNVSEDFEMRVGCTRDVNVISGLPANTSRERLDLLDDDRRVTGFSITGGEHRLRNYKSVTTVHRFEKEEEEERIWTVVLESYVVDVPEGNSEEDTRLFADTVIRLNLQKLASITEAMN; partner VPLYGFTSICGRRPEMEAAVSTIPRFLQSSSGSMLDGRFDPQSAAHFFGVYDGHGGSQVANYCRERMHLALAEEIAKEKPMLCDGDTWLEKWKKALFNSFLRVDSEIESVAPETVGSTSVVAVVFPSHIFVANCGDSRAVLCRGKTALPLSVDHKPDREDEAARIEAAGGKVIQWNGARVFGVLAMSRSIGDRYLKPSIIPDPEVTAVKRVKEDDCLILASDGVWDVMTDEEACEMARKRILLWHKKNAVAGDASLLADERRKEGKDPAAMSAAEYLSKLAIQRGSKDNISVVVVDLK
For `S42W`, “relative binding score” read 34.8%.
Under “relative binding score”, `W41L` is recorded as 6.13%.
`I172C` — result for “relative binding score”: 69.2%.
`R69M`: “relative binding score” 78.2%.
Under “relative binding score”, `E152K` is recorded as 69.2%.
For `I172G`, “relative binding score” read 5.16%.
`A35K`: “relative binding score” -10.4%.
`I172P`: “relative binding score” 6.42%.
For `V43G`, “relative binding score” read -5.33%.
Under “relative binding score”, `R98K` is recorded as 86.2%.
`R113G`: “relative binding score” 58.5%.
`C72R`: “relative binding score” 39.2%.
Under “relative binding score”, `S63T` is recorded as 82.3%.
`L138C` — result for “relative binding score”: 37.7%.
Under “relative binding score”, `E147N` is recorded as 73.8%.
`V40S` — result for “relative binding score”: 5.89%.
`H122Y`: “relative binding score” 12.8%.

Set 2
Target: RNA binding protein fox-1 homolog 2, RRM domain, GST-SBP tag (RBFOX2, Homo sapiens, UniProt O43251-10, residues 100-194)
Method: RNA Bind-n-Seq
Molecule type: RNA
Sample: in vitro
Tested at: 365 nM
Notes: natural RNA segment, single round, ends assumed
Relative to: no-protein control
Reading: higher = stronger binding
Shared flanks, not repeated: GGGAGUUCUACAGUCCGACGAUC … UGGAAUUCUCGGGUGCCAA
Residues (chain): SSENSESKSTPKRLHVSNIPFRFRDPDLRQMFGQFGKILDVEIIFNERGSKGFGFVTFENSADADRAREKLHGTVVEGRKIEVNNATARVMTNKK
`AUGAGGGGUAGCCUCCCACUGCAUCCCAUCCUGAAUAUCCUUUGCAACUCCCCAAGAGUGCUUAUUUAAGUGUUAAUACUUUUAAGAGAACUGCGACGAUUAAUUGUGGA`: “RBNS enrichment (R)” 1.27.
`CUCUGCUUUCUCAGCUUGUCGCUGUGCUCCCACCAUAAGACCAUCUAGACAGCCUCUGGUCUACCAGGACAAGGCCCAGUCCCACUCAGCUCCUUUGAGAGCACCAGAAA`: “RBNS enrichment (R)” 0.278.
`UGACUACCUUGCUUACAGAUUCAUGGUUUGAUAAAUUUGUUGUAUUCAAAAACUUGAAAUGCAGGACGCCAUUAAGUGUCUGUUUAUAUUUUUGGAAUAUUUGUAUUACU`: “RBNS enrichment (R)” 0.812.
Under “RBNS enrichment (R)”, `AAAUGUGAUGUAUUUAAAGAAGGUCCUUUACCUAGGAGCGAAUGAACAAUAGCUGAAUGUCUUGGUAUUUAAAGUGUAAAUUAUCUAUGGCUUUGCCAAAUGAAGGGAGG` is recorded as 1.11.
`AGGGAUUUCCUAUGGAAGUCCUGCUUUAUUCCAGGUGAAGGGAAGGAAGUGUAUAUACUUUUGGCAAGUCAUACAGCUCAAAUGUGAUGAGAUUUCUGAUGUUAGAGGGA`: “RBNS enrichment (R)” 0.726.
`CCUCUUACCUUGCCCUGUUCCCGGUGCCUUCUUGCGAAUGAGCUAGAGUAGUUUAGGGUCCCUGACUCGAACCCUCACUGUGCCUUCUGCCGGGGAGGAGGGGCUCCUGG` — result for “RBNS enrichment (R)”: 0.473.
`CCCCACCUCUGCUGCCUCCCUCUGCUGUCACCUUGCUCAGCCAUCCCGUCUUCUCCAACACCACCUCUCCAGAGGCCAAGGAGGCCUUGGAAACGAUUCCCCCAGUCAUU`: “RBNS enrichment (R)” 0.797.
`AACACACGAGCAAACCCAGAGGUGGAUGUUAUGAACAGCUGUGUCUGCCAAACACAUUUACCCUUUGGCCCCACUUUGAAGGGCAAGAAAUGGCGUCUGCUCUGGUGGCU` — result for “RBNS enrichment (R)”: 0.375.
`AAAGGUGCUGGAGAAAACAUGUAUAGAACUCAGAAUAAAAUGGAAAAUCAUAAUAAAAAUGUUAGUGAUAGAUUUGUUCUGAGUGAACAUCACAAAAAAAAAUUCAAAGA`: “RBNS enrichment (R)” 0.574.
Under “RBNS enrichment (R)”, `GGGAGCUGUUCCGACCCCCGCUCCUGUGUAAGCAUUCAAUCAGUGUAACUUGCAAAAUGCAUAAACAUCCGACAGUUUGAAUUAAUAGUGUUGAUGGAAGAAAUCAUUUU` is recorded as 0.765.
`AGGAGCUUUCUUUUAUGUAAAUUGGAUAAAUACACACACCAUACACUAUCCACAGAUAUAGCCAAGUAGAUUUGGGUAGAGGAUACUAUUUCCAGAAUAGUGUUUAGCUC` — result for “RBNS enrichment (R)”: 0.707.
Under “RBNS enrichment (R)”, `CCAGCCCAGCCUGAUGGUGUAAAUGUACUGUUUCAGAAAACACAUGAGGCUCACCGAAGGCUGAAGAUGUGUGAGCCGGCAAGCCAGGCCUGGUGCCACAGCUUGAUGAG` is recorded as 0.649.

Set 3
Target: FOSB, bZIP domain (human)
Method: DHFR protein complementation
Sample: yeast
Notes: single substitutions, most at no-binding floor
Relative to: wild-type JUN-FOS pair
Reading: higher = stronger binding
Starting sequence: JUN, bZIP domain (human); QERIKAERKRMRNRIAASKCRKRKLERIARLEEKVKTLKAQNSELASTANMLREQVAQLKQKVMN
For `L38W`, the binding fitness was -1.35 natural log.
`L38K` gave a binding fitness of -1.21 natural log.
`L52G` gave a binding fitness of -1.47 natural log.
With `T37P` the binding fitness was -1.22 natural log.
The binding fitness of `L38S` is reported as -1.21 natural log.
The binding fitness of `E32P` is reported as -1.23 natural log.

Set 4
Target: CCND3, cyclin fold, Cln2 fusion (human)
Method: yeast growth competition, sequencing
Sample: yeast
Notes: weak parent motif
Relative to: not given
Reading: higher = stronger binding
Starting sequence: RB1 docking peptide (human); PKPLKKLRFDIEG; partner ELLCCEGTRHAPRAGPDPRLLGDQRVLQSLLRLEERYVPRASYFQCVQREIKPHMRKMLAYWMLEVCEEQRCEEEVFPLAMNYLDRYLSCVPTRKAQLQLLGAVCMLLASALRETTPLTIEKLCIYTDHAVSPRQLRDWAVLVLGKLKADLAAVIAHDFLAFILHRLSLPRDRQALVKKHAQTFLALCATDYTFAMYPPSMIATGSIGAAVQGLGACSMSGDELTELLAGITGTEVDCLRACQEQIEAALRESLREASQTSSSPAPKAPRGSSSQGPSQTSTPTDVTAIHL
`PKPHKKLRFDIEG [L4H]` — result for “normalised enrichment score”: 0.158.
`PKPFKKLRFDIEG [L4F]`: “normalised enrichment score” 0.171.
Under “normalised enrichment score”, `PKPLYKLRFDIEG [K5Y]` is recorded as 0.085.
`PKPLKKLRKDIEG [F9K]` — result for “normalised enrichment score”: 0.144.
`KKPLKKLRFDIEG [P1K]`: “normalised enrichment score” 0.0784.
`PKPLKMLRFDIEG [K6M]`: “normalised enrichment score” 0.131.
`PWPLKKLRFDIEG [K2W]`: “normalised enrichment score” 0.0735.
For `PKPLKKSRFDIEG [L7S]`, “normalised enrichment score” read 0.174.
`PKPLKKPRFDIEG [L7P]`: “normalised enrichment score” 0.115.
`PKPLKKLRFMIEG [D10M]`: “normalised enrichment score” 0.257.
`PKPLKKMRFDIEG [L7M]`: “normalised enrichment score” 0.152.
`PKPLKKLRFDEEG [I11E]` — result for “normalised enrichment score”: 0.163.
Under “normalised enrichment score”, `PKYLKKLRFDIEG [P3Y]` is recorded as 0.0883.
`PKPLKKLRFDSEG [I11S]`: “normalised enrichment score” 0.183.
For `PKPLKKIRFDIEG [L7I]`, “normalised enrichment score” read 0.0918.
`PKPLKLLRFDIEG [K6L]`: “normalised enrichment score” 0.0855.
Under “normalised enrichment score”, `PKPLKKLVFDIEG [R8V]` is recorded as 0.124.
`PVPLKKLRFDIEG [K2V]` — result for “normalised enrichment score”: 0.179.

Set 5
Target: RING finger protein unkempt homolog, zinc fingers 1-6, GST-SBP tag (UNK, Homo sapiens, UniProt Q9C0B0, residues 30-357)
Method: RNA Bind-n-Seq
Molecule type: RNA
Sample: in vitro
Tested at: not given
Notes: RNA with constant flanks, human and mouse sites, ends assumed
Relative to: input RNA pool
Reading: higher = stronger binding
Shared flanks, not repeated: GGGAGUUCUACAGUCCGACGAUC … CAACAGAGGAUUGAGCAUCA
Construct (chain): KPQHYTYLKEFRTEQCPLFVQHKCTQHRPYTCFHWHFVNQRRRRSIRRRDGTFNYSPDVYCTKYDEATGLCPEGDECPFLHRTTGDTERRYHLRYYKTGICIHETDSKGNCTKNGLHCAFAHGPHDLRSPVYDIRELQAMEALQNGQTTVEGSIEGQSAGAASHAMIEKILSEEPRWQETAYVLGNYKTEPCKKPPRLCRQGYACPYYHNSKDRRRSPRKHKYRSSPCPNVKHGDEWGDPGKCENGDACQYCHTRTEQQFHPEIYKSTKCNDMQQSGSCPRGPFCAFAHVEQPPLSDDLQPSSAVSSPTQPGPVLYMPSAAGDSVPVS
`UUGGUUGUGACUUCUCUGUGUAAGUCAUCUUCUACGCCAGCUUCCCAGAACAACCUGCGGCACUAGGUCCCACCUUCGCACAACCGGUGUGAUUGACAUGAGUUCACCAGACCAGCAGGC` gave a bound/input enrichment of 0.092 ratio.
`UACAUCCAGAGCUUCCGGGACCGGCAGACUGGGAGCUCUCUGAGUUCCUUCAUGGCCUCCCCUACAGACACGGACUAUGAGUAUGGGUCCCGGGGACCACUGACAGCCUGCUCGGGACCC` gave a bound/input enrichment of 0.258 ratio.
`AGCUUCAUGGUUAAUAAUACAUUUAUGUUGACACCUCCCUAAUCCAGGAAACAUUCACAAACAAGGACUCCCAUAUACAAAUACUUUAGGAAGAGAGAUUUCCCAGGCAGAUAUCACCAA` gave a bound/input enrichment of 1.68 ratio.
`GGCUGCUGGUGACUGUCCUGGAGUGGCUGGAGUUCCCGCCGGAGCGCGGCCAGACUAAUUUUAGAAAAUGCCAAGUAGGAAGUUUGUUGAGGGUGAAGUGGUCAGAGGCCGAUGGCCUGG` gave a bound/input enrichment of 6.49 ratio.
`UCUGAAUCGGAGCAGGCUCUUAAAGGUACCUCUCAGAUUAAGUUACUCUCAUCUGAAGAUAUAGAAGGGAUGCGACUCGUGUGUAGGCUUGCCAGAGAAGUUUUGGACAUUGCUGCUGGG` gave a bound/input enrichment of 0.289 ratio.
The bound/input enrichment of `CUGUGUGUGCUGAAUAAAUGGCUUGUAAAGAAGUUUUUCCAAGCUGUAACCCAUGCUGUUAUUAUAGUUGCUGCAAAAUGUUCUUCCUGAUAUUGAUUUUAUUUGUUAACUGAAGGUCUC` is reported as 0.546 ratio.
`UUGCUCAAUAUGCUCCCAGAUCAAGAGUAUAAGGUUGCUUUUACAAAAACAUUUGUUCAGCAUUAUGCUUUUAUUAUGAAAACACUGAAGAAAAGUCACGAAUCAGAUACAAUGUCCAAC` has a bound/input enrichment of 0.174 ratio.
The bound/input enrichment of `CUGAGGUUAUUUGGAAUUGCUGAUAAGAUCUCCCUUGAUCUGAGUCUGGCCCGGGGCCUGGACUAUUAUACUGGAGUGAUUUAUGAAGCAGUACUGCUAGAGUCUCCAGCUCAGGCUGGA` is reported as 0.17 ratio.
For `CCGAUGGUUCUUUCUUUUGCUCAGUGGAGUUGGAGGUUUUGUGUUUGGUUUUCUCAUUCUUGUCUUGUUUUGUGUGGGUGGAUUUUCACCGACCAAUGAUAUCCUCUUCUGACGGUCACC`, the bound/input enrichment was 0.313 ratio.
`GAGUCUGACUCUUAACCCUUUUGAGAAUUGCUCUGAAUUUUGUUCUCAGGCAUUAUACAGUUAGUAAUUAAACUUUAAAUGCCAUUACUACUUGUUUUUUCAUAUCCCAAGAAUAAGAAC` has a bound/input enrichment of 0.228 ratio.
The bound/input enrichment of `CUGGCCUGGCCCUCCCCAGGGGCCUCCUUUCGUAUAGUCACUGCUUCUGCAUCAGAUACUUUCAGCUGCAACUCCCUACUGGGUGGGGCACCCAUUUCAGGCAGAAGGUUUUGGUACCCU` is reported as 0.296 ratio.

A few entries again (set 1):
`R69M`: “relative binding score” 78.2%.
Under “relative binding score”, `E152K` is recorded as 69.2%.
For `I172G`, “relative binding score” read 5.16%.
`A35K`: “relative binding score” -10.4%.
`I172P`: “relative binding score” 6.42%.
For `V43G`, “relative binding score” read -5.33%.
Under “relative binding score”, `R98K` is recorded as 86.2%.
`R113G`: “relative binding score” 58.5%.
`C72R`: “relative binding score” 39.2%.
